{"data": "Assay results of several laboratories", "target": "Cytochrome P450 2C9 (CYP2C9, Homo sapiens, UniProt P11712)", "note": "Protocols differ between the studies behind these lines. Several values in a cell are separate wells, animals, samples, runs or records. ± marks the error that the study gave.", "sequence of UniProt P11712 (whole entry, looked up)": "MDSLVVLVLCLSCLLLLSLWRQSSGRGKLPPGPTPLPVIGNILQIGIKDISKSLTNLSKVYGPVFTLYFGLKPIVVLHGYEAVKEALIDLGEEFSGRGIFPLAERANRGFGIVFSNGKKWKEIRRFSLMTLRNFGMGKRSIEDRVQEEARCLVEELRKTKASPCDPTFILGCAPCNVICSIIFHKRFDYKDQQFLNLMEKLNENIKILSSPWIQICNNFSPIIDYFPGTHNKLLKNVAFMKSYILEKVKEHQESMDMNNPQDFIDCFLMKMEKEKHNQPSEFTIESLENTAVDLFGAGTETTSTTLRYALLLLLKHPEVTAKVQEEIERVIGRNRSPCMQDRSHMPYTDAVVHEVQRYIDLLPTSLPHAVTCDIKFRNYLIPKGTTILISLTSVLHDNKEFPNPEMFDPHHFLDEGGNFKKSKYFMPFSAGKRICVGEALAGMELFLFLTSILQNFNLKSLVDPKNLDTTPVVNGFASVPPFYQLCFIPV"}
{"Structure (SMILES)": "CCOC(=O)[C@@]12C[C@@H]1[C@@H](n1ccc3c(NC)nc(C#Cc4ccc(Cl)s4)nc31)[C@H](O)[C@@H]2O", "test": "enzyme activity, inhibitor", "system": "human liver microsomes", "conditions": "10 min, pH 7.4, with: diclofenac substrate", "IC50": "14.5 µM"}
{"Structure (SMILES)": "CSc1ccccc1C(=O)NCCn1cc(C(=O)NCc2cccc(C)n2)c(=O)c2cc3c(cc21)OC(F)(F)O3", "test": "enzyme activity, inhibitor", "system": "human liver microsomes", "conditions": "20 min, 30 min NADPH preincubation, with: diclofenac 5 µM", "IC50": "> 100 µM"}
{"Structure (SMILES)": "Cc1nc(-c2cnc(NC(C)C)n(C)c2=O)ccc1Oc1ccnc(-c2cnn(C)c2)c1", "test": "direct inhibition, inhibitor", "conditions": "no preincubation", "IC50": "78 µM"}
{"Structure (SMILES)": "COc1cc(O)c(CC=C(C)C)c(O)c1C(=O)/C=C/c1ccc(O)cc1", "test": "enzyme activity, inhibitor", "system": "human liver microsomes", "conditions": "pH 7.4, with: tolbutamide", "IC50": "3.3 ± 0.4 µM"}
{"Structure (SMILES)": "O=C(NCCN1CCCC1)c1cc(-c2ccc(CN3CCOCC3)cc2)nc2ccc(F)cc12", "test": "inhibitor", "system": "pooled human liver microsomes", "conditions": "with: diclofenac", "IC50": "> 100 µM"}
{"Structure (SMILES)": "CC(C)=CCc1c(O)cc2c(c1O)C(=O)C[C@@H](c1ccc(O)cc1)O2", "test": "inhibitor", "conditions": "pH 7.4", "IC50": "5.9 ± 0.7 µM"}
{"Structure (SMILES)": "N#Cc1ccc([C@H]2CCc3cncn32)c(F)c1", "test": "inhibitor", "conditions": "pH 7.4", "IC50": "≥ 20 µM and 40 µM"}
{"Structure (SMILES)": "Cc1noc(C)c1-c1ccc2nc(-c3cnn(CC(C)(C)O)c3)nc(N3CCOC[C@@H]3c3ccccc3)c2c1", "IC50": "2.1 µM"}
{"Structure (SMILES)": "CCOc1cc(-c2nncn2C)ccc1Nc1ncc2cc(C)nc(NCC(C)(C)C)c2n1", "test": "enzyme activity, inhibitor", "IC50": "10 to 50 µM"}
{"Structure (SMILES)": "Cc1cc(O[C@@H]2CCOC2)cc(C(=O)Nc2ccc(F)cn2)n1", "test": "inhibitor", "IC50": "> 30 µM"}
{"Structure (SMILES)": "CCC(C)(C)C(=O)O[C@H]1C[C@@H](C)C=C2C=C[C@H](C)[C@H](CC[C@@H](O)C[C@@H](O)CC(=O)O)[C@H]21", "test": "enzyme activity, inhibitor", "conditions": "with: MFC substrate", "IC50": "96.6 µM"}
{"Structure (SMILES)": "COc1ccc(Cc2nc(NC(=O)C34CC5CC(CC(C5)C3)C4)n(C)c2Cc2ccc(OC)c(OC)c2)cc1", "IC50": "97.8 ± 23.3 µM"}
